Measurements from different studies.
A part holds a random share of what one study measured.

Study 1 — method: universal PBM; form: double-stranded DNA, one strand shown; matrix: in vitro; tested at: not given; direction: higher = stronger binding
Target: Sal-like protein 4, full length isoform B (SALL4, Homo sapiens, UniProt Q9UJQ4-2, residues 1-616)
Notes: 8-mer, flanks averaged, mean of replicates
Target sequence (chain): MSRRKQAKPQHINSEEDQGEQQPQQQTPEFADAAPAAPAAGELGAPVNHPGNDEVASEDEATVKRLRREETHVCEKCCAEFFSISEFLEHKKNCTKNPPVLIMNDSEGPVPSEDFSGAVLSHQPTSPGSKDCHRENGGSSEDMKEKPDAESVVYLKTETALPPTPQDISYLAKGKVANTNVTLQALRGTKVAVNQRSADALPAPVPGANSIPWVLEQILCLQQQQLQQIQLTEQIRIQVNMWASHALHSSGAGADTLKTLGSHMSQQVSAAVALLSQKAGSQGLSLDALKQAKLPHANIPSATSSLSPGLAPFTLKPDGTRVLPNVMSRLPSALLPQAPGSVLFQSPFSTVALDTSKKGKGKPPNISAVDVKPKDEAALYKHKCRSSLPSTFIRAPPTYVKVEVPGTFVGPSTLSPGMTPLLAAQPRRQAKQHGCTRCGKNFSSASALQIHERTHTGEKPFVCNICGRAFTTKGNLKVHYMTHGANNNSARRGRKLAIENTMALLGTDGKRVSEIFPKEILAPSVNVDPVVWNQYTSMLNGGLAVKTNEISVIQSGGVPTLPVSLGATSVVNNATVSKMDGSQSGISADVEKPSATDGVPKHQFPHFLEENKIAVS
Oligonucleotide	E-score
AACAGTGT	0.106
CAGTGCAG	-0.252
CACGCGAC	-0.155
TATTCAAA	0.32
GTCGGTCA	0.00428

Study 2 — method: protein-binding microarray; form: double-stranded DNA, one strand shown; matrix: in vitro; tested at: not given; direction: higher = stronger binding
Target: Protein C-ets-1 (ETS1, Homo sapiens, UniProt P14921, residues 1-441, K379A, full length assumed)
Notes: k-mer, scored over probes, only values ≥0.25
Construct (chain): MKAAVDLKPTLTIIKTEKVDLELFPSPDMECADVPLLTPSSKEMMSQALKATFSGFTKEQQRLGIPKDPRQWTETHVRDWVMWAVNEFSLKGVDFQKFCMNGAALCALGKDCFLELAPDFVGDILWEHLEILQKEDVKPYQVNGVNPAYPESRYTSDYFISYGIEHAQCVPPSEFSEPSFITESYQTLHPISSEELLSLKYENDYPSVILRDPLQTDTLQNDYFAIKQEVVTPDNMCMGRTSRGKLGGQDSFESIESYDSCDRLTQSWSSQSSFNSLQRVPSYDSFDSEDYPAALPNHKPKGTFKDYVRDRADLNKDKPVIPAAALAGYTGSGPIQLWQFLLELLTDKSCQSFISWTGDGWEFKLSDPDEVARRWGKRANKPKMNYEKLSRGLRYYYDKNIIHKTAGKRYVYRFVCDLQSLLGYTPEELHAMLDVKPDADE
Oligonucleotide	E-score
CATTTCCG	0.326
ATTACACA	0.29
CCCGGCGC	0.299
ACTTCCGC	0.37

Study 3 — method: competition protein-binding microarray; form: double-stranded DNA, one strand shown; matrix: in vitro; tested at: 2 µM; added: Pho4 competitor, 0.05 µM; direction: higher = stronger binding
Target: Centromere-binding protein 1, full length, His-tagged (CBF1, Saccharomyces cerevisiae, UniProt P17106, residues 1-351)
Chain of UniProt P17106 (whole entry, looked up): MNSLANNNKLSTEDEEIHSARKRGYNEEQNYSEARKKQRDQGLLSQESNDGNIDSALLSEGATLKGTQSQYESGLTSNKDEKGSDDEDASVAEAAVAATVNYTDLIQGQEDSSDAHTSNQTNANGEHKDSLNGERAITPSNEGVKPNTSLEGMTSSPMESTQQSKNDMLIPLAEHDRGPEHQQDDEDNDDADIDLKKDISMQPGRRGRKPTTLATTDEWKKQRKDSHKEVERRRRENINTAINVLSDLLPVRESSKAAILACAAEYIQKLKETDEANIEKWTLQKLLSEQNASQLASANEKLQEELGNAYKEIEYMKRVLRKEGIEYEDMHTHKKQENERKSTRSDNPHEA
Notes: whole 60-bp probe, lowest competitor level
Oligonucleotide	fluorescence intensity [a.u.]
CGTCCTAGTGATTGCTCTGTGGGTGCCATGAGGAAGGTCTTGATTCGCTTGACGCTGCTG	84.6
GTCCCCTAAGTTCTTCACGTGTTCCCTTCTCATCGCGTCTTGATTCGCTTGACGCTGCTG	1090
CTTTCCCGATCTTTTCACGTGTGTTTAGCACATTTGGTCTTGATTCGCTTGACGCTGCTG	595
TTTTTGAGACGTACTGGCGTGCTAAATAGAGTGGTTGTCTTGATTCGCTTGACGCTGCTG	81.1

Single results of other studies
Substance	target	assay	system	conditions	how to read	quantity	result
PhoQ, residues 284 288 289 292 302 303 GLASVI	PhoP, residues 12 14 15 18 19 AGCRL (Escherichia coli, UniProt P23836)	Sort-seq, refers to: YFP reporter	E. coli	PhoQ-PhoP variant library, added: 10 µM Mg2+	reference: high Mg2+ state, higher = stronger signaling	fold induction	3.17

A few entries again (single results of other studies):
Substance	target	assay	system	conditions	how to read	quantity	result
PhoQ, residues 284 288 289 292 302 303 GLASVI	PhoP, residues 12 14 15 18 19 AGCRL (Escherichia coli, UniProt P23836)	Sort-seq, refers to: YFP reporter	E. coli	PhoQ-PhoP variant library, added: 10 µM Mg2+	reference: high Mg2+ state, higher = stronger signaling	fold induction	3.17
